Measured values gathered from unrelated publications.
Numbers after ± are the reported error.
Cell line: A2780

CCn1cc(-c2cc(Cn3ccnc3)cc3c2CCN([C@H](c2cc(OC)ccn2)C2CC2)C3=O)c(C(F)(F)F)n1
EC50 (cell growth, inhibitor; 120 h): 0.143 µM

COc1cccc2c1C(=O)c1c(O)c3c(c(O)c1C2=O)C[C@@](O)(C(=O)CO)C[C@@H]3O[C@H]1C[C@H](N)[C@H](O)[C@H](C)O1
IC50 (cytotoxicity, WST-1; 72 h): 0.01 µM

C[C@@H]1CC[C@@H]([C@@](O)(CNCc2ccccc2)COCc2ccccc2)[C@H](OCc2ccccc2)C1
IC50 (cell growth, inhibitor, MTT; 72 h): 3.26 µM

[Fe+2].c1cc[cH-]c1.c1cc[cH-]c1
IC50 (viability, MTT; 48 h): > 100 µM

Cc1[nH]c2ccccc2c1CCNCc1ccc(/C=C/C(=O)NO)cc1
late apoptotic cells (annexin V/PI flow cytometry; concentration not given, 48 h; baseline: control subtracted): 2.6 ± 0.6%

Nc1ccccc1NC(=O)c1ccc(CNC(=O)OCc2cccnc2)cc1
apoptotic cells (flow cytometry, refers to: subG1 nuclei; concentration not given): ~60%

COc1ccccc1CNC[C@@](C)(O)[C@@H]1CC[C@@H](C)C[C@H]1OCc1ccccc1
IC50 (cell growth, inhibitor, MTT; 72 h): 7.39 µM

CC(C)(C)c1nc(-c2cccc(NS(=O)(=O)c3c(F)cccc3F)c2F)c(-c2ccnc(N)n2)s1
early apoptotic cells (annexin V/PI flow cytometry; concentration not given, 48 h; baseline: control subtracted): 32.8 ± 5.5%

Some of these lines once more:
CC(C)(C)c1nc(-c2cccc(NS(=O)(=O)c3c(F)cccc3F)c2F)c(-c2ccnc(N)n2)s1
early apoptotic cells (annexin V/PI flow cytometry; concentration not given, 48 h; baseline: control subtracted): 32.8 ± 5.5%
